Experimental data pooled from the literature.
Numbers after ± are the reported error.

| SMILES | host | sample | route | dose | time | reference | tissue uptake |
| --- | --- | --- | --- | --- | --- | --- | --- |
| COc1cc2ccnc(Cc3ccc(O[11CH3])c(OC)c3)c2cc1OC | Sprague-Dawley rats | fat | intravenous | – | 0.5 h | – | 0.226 ± 0.026 %ID/g |
| COc1ccc(NC(=O)Cn2c(=O)c3ccccc3n(CC(=O)Nc3cc([125I])c(OC)cc3OC)c2=O)cc1 | Wistar rat (normal) | thymus | intravenous | – | 0.5 h | – | 0.1 ± 0.02 %ID/g |
| CCN(CC)c1ccc2c(-c3ccccc3C(=O)OCCOCC[18F])c3ccc(=[N+](CC)CC)cc-3oc2c1 | rat | lung | – | – | 60 min | – | 2.06 ± 0.16 %ID/g |
| O=C(c1ccc(F)cc1)C1CCN(C2Cc3c(cccc3OCC[18F])CC2O)CC1 (single isomer, unassigned; (-)) | Sprague-Dawley rat, male | lung | intravenous | dose not given | 30 min | – | 0.973 ± 0.107 %ID/g |
| O=C(O)CCCN1CCN2CCN(CC1)CC(=O)[O][Al]([18F])[O]C(=O)C2 | Sprague-Dawley rat renal pedicle ligation | bowel, intestines and stomach | – | dose not given | 60 min | – | 3.2 ± 0.6 % injected dose |
| CN(C)c1ccc(C(=O)NCCCCN2CCN(c3ccccc3O[11CH3])CC2)cc1 | male Sprague Dawley rat | blood | iv | – | 30 min | untreated | 0.025 %ID/g |
| CCN(CC)c1ccc2c(-c3ccccc3C(=O)OCCC[18F])c3ccc(=[N+](CC)CC)cc-3oc2c1 | rat | blood | – | – | 60 min | – | 0.05 ± 0.01 %ID/g |
| CCNc1cc2[o+]c3cc(NCC)c(C)cc3c(-c3ccccc3C(=O)OCCOCC[18F])c2cc1C | rat | mandibular gland | – | – | 30 min | – | 2.01 ± 0.26 %ID/g |

Some of these lines once more:
| SMILES | host | sample | route | dose | time | reference | tissue uptake |
| --- | --- | --- | --- | --- | --- | --- | --- |
| O=C(c1ccc(F)cc1)C1CCN(C2Cc3c(cccc3OCC[18F])CC2O)CC1 (single isomer, unassigned; (-)) | Sprague-Dawley rat, male | lung | intravenous | dose not given | 30 min | – | 0.973 ± 0.107 %ID/g |
